Experimental data pooled from the literature.
A part holds a random share of what one study measured.

Series 1
Target: Interferon regulatory factor 5, full length, phosphomimetic (IRF5, Homo sapiens, UniProt Q13568-2, residues 1-514, K96S/S451D/S453D/S456D/S462D)
Method: protein-binding microarray
Form: double-stranded DNA, one strand shown
Medium: in vitro
Tested at: 250 nM
Setting: 60-bp whole probe
With: salmon DNA 0.4 mg/ml
Baseline: random background probes
Reading: higher = stronger binding
Endpoint: log fluorescence
Constant ends, left off below: GCCTAGCAC … GTCTTGATTCGCTTGACGCTGCTG
TCAGTTCTGCTTCTTAGACTGTGCTAG: 0.328 z-score
TTAGATCTCGGGACTGGATTAGTGCTA: -0.232 z-score
TACGGTTTCCTTATCCTGACGTGCTAG: 1.13 z-score
TTAGGTTTCGGACTGGGTAAGTGCTAG: 5.71 z-score
AGCAGTTGGACCTCTCAGCCAGTGCTA: -0.785 z-score
TCAAGTTTCACTTTCCAACTGTGCTAG: 7.33 z-score
TTAGATATCGAGACTGGATTAGTGCTA: 1.47 z-score
TCAGGACTGCTTCTCCTTTAGTGCTAG: -0.105 z-score
GACGGTCTCGGTATCTGGACGTGCTAG: 0.418 z-score
GACGGTTTCCTACTGCCGACGTGCTAG: 0.358 z-score
GACGATACCAGTTTCGAGACGTGCTAG: 6.12 z-score
GACGCTTTCCTTATCCTGACGTGCTAG: 0.88 z-score
TTAGGACTGGGTATCGGGTAGTGCTAG: 1.07 z-score
TCAAGAAAGAAAACGGGGAGGTGCTAG: 0.61 z-score
TTAGGACTGGGCATCGGTTAGTGCTAG: -0.0863 z-score
TCAAAAATCATTTTCTCACTGTGCTAG: 1.05 z-score
GATGATTCCAGTTTCGAGACGTGCTAG: 5.44 z-score
TTAGGTTTCGCTATCGGTTAGTGCTAG: 9.96 z-score
GACGATCTCAGTTTCGAGGCGTGCTAG: 3.65 z-score
TTAGGTATCCTACTGTTTTAGTGCTAG: 0.211 z-score
GACGGTCTCCTTCACCTGACGTGCTAG: 0.111 z-score
GGATGAAGCGCTTCTCGAGTGGTGCTA: -0.301 z-score
TTAGGACTGGGGACTGGATTAGTGCTA: -0.596 z-score
TTAGGTATCGGACTGGGGTAGTGCTAG: 1.37 z-score

Series 2
Target: PABPC1L2, full length, GST fusion (mouse, UniProt A0ABA7IW68)
Method: RNAcompete
Form: RNA
Medium: in vitro
Tested at: 20 nM
Setting: 7-mer, probes averaged, single round
Baseline: mean of 7-mers
Reading: higher = stronger binding
Endpoint: 7-mer Z-score
Construct (chain): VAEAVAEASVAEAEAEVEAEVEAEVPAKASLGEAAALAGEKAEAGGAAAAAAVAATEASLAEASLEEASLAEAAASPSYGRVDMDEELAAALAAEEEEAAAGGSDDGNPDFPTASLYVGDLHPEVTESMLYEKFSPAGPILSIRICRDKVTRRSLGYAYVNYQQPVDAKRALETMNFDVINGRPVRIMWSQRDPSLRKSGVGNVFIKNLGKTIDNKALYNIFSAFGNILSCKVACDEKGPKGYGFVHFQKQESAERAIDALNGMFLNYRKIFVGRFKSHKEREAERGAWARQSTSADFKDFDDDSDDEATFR
GGAGGAU: 0.066
UAACGUC: -0.396
UACUGCA: -0.124
GCUGCAA: 0.0805
GGUGGUC: -0.0609
UAUGCUG: -0.17
GAACGCC: -0.244
CAUAUCG: -0.162
UACACUC: -0.146
GACGCCU: -0.28
AUGGGUU: -0.155
AUUUACC: 0.0805
GGUUCAC: -0.235
CUUCUGU: -0.474
GAUAACC: -0.197
ACGAUGU: -0.161
CAUGUUA: -0.224
CGUACCC: -0.349
CGUCGCC: -0.414
CUGUGAG: -0.213
ACCUGCC: -0.32
UGUUGAC: -0.253
CACGGCG: 0.0497
GAGCUUA: -0.079

Series 3
Target: Prothrombin, mature alpha-thrombin (F2, Homo sapiens, UniProt P00734)
Method: aptamer microarray, sandwich
Form: DNA with 2'F-ANA
Medium: in vitro
Tested at: 200 nM
Setting: whole 15-mer aptamer, many near background
With: Cy3 exosite-II aptamer, 400 nM
Reading: higher = stronger binding
Endpoint: mean fluorescence intensity
Sequence: GGTTGGTGTGGTTGG
2'F-ANA at 2 3 4 6 14: 253 a.u.
2'F-ANA at 2 6 11 14 15: 149 a.u.
2'F-ANA at 1 2 4 6 7 9 11 14: 48.9 a.u.
2'F-ANA at 1 4 7 9 10 14: 43.4 a.u.
2'F-ANA at 6 10 13 14: 98.9 a.u.
2'F-ANA at 4 5 7 9 15: 64.2 a.u.
2'F-ANA at 3 4 5 7 9 12 13 14 15: 59.1 a.u.
2'F-ANA at 3 4 5 8 10 12 15: 60.7 a.u.
2'F-ANA at 3 5 10 12 14: 50.9 a.u.
2'F-ANA at 1 3 5 6 8 9 15: 74 a.u.
2'F-ANA at 2 4 6 7 8 11 12 14 15: 127 a.u.
2'F-ANA at 1 2 3 4 8 9 13 14 15: 120 a.u.
2'F-ANA at 2 6 8 11: 355 a.u.
2'F-ANA at 4 5 7 11 12 13 14: 47.5 a.u.
2'F-ANA at 2 3 4 7 9 13: 446 a.u.
2'F-ANA at 1 6 7 9 10 13: 62.1 a.u.
2'F-ANA at 2 3 4 9 13 15: 446 a.u.
2'F-ANA at 3 5 6 7 8 9 10 12 13: 57.1 a.u.
2'F-ANA at 3 5 6 8 9 10 13: 52.7 a.u.
2'F-ANA at 4 5 9 10 11 13 14: 44.8 a.u.
2'F-ANA at 2 3 6 7 13 15: 549 a.u.
2'F-ANA at 2 4 7 8 9 15: 360 a.u.
2'F-ANA at 1 2 4 5 7 9 11 13 14: 65 a.u.
2'F-ANA at 1 2 3 6 8 9 10 13: 62.3 a.u.

Series 4
Target: Histone acetyltransferase KAT6A, winged helix 2, GST fusion (KAT6A, Homo sapiens, UniProt Q92794, residues 85-181)
Method: protein binding microarray
Form: double-stranded DNA, one strand shown
Medium: in vitro
Tested at: not given
Setting: 8-mer, flanks averaged, mean of 2 arrays, mostly near background
Baseline: not given
Reading: higher = stronger binding
Endpoint: E-score
Construct (chain): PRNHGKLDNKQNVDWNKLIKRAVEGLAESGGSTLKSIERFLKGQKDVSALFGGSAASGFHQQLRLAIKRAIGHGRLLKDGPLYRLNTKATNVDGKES
CCCATGTC: -0.0752
CAATCATA: 0.029
ACACCTCC: -0.0768
ACTTTTAA: 0.00219
ATCTGTCA: -0.0529
GCTGATAA: 0.142
AAGACCAC: -0.0182
CGAGTACG: -0.0512
CCTGCGTA: 0.133
CGTTTCGA: 0.0448
AGTATTCG: 0.0432
CGGATGAG: 0.119
ATGTACGC: -0.199
CATATATC: 0.0234
GATCATAC: -0.105
CCAGAATC: -0.00079
GCGCTGCC: 0.203
ATTTGTAC: -0.0273

Series 5
Target: Sal-like protein 4, full length isoform A (SALL4, Homo sapiens, UniProt Q9UJQ4, residues 1-1053)
Chain of UniProt Q9UJQ4 (whole entry, looked up): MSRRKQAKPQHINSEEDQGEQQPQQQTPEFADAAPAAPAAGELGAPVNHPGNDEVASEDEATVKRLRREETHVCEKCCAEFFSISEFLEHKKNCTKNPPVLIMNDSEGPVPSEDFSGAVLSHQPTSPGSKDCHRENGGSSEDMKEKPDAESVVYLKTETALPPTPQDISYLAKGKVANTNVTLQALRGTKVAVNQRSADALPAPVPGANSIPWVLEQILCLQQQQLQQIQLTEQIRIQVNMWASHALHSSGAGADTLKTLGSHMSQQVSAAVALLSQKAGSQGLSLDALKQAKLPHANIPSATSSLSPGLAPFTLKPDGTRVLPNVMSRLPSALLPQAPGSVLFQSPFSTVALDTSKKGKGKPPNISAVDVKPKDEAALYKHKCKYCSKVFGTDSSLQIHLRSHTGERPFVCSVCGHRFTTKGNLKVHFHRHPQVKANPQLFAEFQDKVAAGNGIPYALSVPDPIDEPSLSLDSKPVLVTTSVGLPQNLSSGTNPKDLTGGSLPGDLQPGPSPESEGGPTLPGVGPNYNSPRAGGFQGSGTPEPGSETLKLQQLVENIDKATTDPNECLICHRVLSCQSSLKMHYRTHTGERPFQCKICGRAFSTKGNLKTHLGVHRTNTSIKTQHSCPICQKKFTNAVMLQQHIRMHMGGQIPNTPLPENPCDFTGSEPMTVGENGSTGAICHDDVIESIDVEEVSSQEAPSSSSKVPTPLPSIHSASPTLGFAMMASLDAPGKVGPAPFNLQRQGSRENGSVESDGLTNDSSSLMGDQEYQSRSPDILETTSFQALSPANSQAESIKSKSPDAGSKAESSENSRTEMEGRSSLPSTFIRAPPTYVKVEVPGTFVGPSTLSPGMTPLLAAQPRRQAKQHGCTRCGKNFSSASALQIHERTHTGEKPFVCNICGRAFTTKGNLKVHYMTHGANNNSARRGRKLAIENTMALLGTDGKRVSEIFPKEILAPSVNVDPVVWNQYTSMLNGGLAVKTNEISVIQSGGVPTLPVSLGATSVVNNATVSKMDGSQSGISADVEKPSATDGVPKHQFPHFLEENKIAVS
Method: universal PBM
Form: double-stranded DNA, one strand shown
Medium: in vitro
Tested at: 600 nM
Setting: 8-mer, flanks averaged, mean of replicates
Reading: higher = stronger binding
Endpoint: E-score
AGAGCATC: -0.0571
TAACTCTA: 0.134
GACGACTA: -0.0578
GGCATCAC: -0.299
ACTGTCCG: -0.144
GATAGACA: 0.0844
CAGAGGCG: -0.147
CACCTAGA: -0.175
AAACTAGC: -0.0717
TCTGCACA: 0.127
AGGTGGCC: -0.272
ATGCCACG: -0.11
AAAAGGCC: -0.122
CATTTAGA: 0.155
CAGCATCA: 0.022
AGGAGGCA: -0.288
CGCCGAAC: -0.0565
AGCCAGGC: -0.312
CATTTGTC: 0.202
GGCGTCAA: -0.15
CCCACCCC: -0.135
AGGCGGAA: 0.0987
GTGATCAC: -0.149

Series 6
Target: RING finger protein unkempt homolog, zinc fingers 1-6, GST-SBP tag (UNK, Homo sapiens, UniProt Q9C0B0, residues 30-357)
Method: RNA Bind-n-Seq
Form: RNA
Medium: in vitro
Tested at: not given
Setting: RNA with constant flanks, ends assumed
Baseline: input RNA pool
Reading: higher = stronger binding
Endpoint: bound/input enrichment
Constant ends, left off below: GGGAGUUCUACAGUCCGACGAUC … CAACAGAGGAUUGAGCAUCA
Residues (chain): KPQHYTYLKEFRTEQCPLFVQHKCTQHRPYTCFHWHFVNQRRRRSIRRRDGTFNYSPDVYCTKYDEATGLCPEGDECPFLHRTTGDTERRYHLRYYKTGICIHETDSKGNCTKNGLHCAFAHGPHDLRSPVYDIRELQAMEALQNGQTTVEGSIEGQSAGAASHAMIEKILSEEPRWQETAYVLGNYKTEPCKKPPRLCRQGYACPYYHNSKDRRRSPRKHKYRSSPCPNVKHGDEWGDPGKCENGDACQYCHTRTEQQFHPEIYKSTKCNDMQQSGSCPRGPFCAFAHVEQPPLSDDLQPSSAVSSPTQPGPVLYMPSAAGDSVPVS
UAUGAAGUGUAUAGUUCCUCAGCAGGACCUGCGGUCAGACAUAAGUGCCUUAGAGCAAUUCUCCGGAUAAUUUAUUUUGCGGAUGCUGAACUUCUGAAGGAUGUUCUGAAAAAUCAUGCU: 0.472 ratio
AAAUACUUAGCACAGUUACUAAACAGUGUACGAUUACCAUUGUUGAGUGUUAAGUUUCUCACCCGACUAUAUGAAGCAAAUCAUCUUAUUCGUGAUGAUCGCACUUGUAAACAUCUUUUG: 0.12 ratio
GAACAGCUCACGAGAGGGUCCGUCGUAACCUGUUGAGUAACUAUGGAAGACUAUAUCAAAACCGAGAAAAUUGGAGAAGGUACUUACGGUGUGGUGUAUAAGGGUAGACACAGAGUCACU: 0.23 ratio
CAUUCGAAGGUUAAUGAUGAUUGUGAUGUUUAGGAAUGUUUGUCUCAGCCACAGUUCCUUCACCGCUUUUCCAAAAUGAAUUGGGAAAAAAAAAUCGUAUAGCAGUCUUAAAGCUUAGUA: 0.701 ratio
UAACAGUCAAUCAGCAACUGCAGGACUCACGAAAGGUACAAGUCUGUGGUAUCAUCUUGCCCGCAUCUAUGUUGUGGUGUGCCAAGCCUGAUGGGCAGUAAGCUUCCUGUGAUGUUUGUC: 0.071 ratio
ACACAGAUAAGGACACAGGAUGAAAGACGUGUGAGUUAAGUCUCAGCUUUCUGUAGAGAGACCGACUAAAAAACAAAUUCAGGAAACCUAGAAAACAAUUAUUUCCCCUGGGCACAGACA: 11.3 ratio
CUCUUCUUAAAUUCUACUGCAGGAACAAGUGGGGGUGCUUACGAUCACAGCUAUGCCGAACUUUUUUUGAAUUCUACAGCAGGGGCAAGUGGUGGCGCUUAUGGUAGCCAAAUGAUGGGA: 0.697 ratio
AUCACUUUGACCCAGAUUGUGUGACAUACACCUGAGAGGAAUUGAGGGAGUAUUGGUGUCCCGGUUGUCAUGUUUCUGUUUUGUGACACAGUGGAUGGAAAGGUUUGUCCUCUUCCUACU: 0.115 ratio
CAUGACUUAAAUAAUUCUGAAAGAGUUCAGAAAAUGAAAAACUCACAGAAACCUCAGAAGACCGAUUCAGAAAUAAGUCCCAAGAAGGAUAAUGAAGAAUUUCUACAAAAUAAAAAAAAG: 0.14 ratio
GAGAAAGGAGAGAUGCAGGUUGUCCCAGUUUUGGUGCAUCUCCUGUCUGCUAUCAGCAGUGUCCGGCUUUACAUUCCUAAAGACCUUCGGCCGGUGGACAAUAGACAGAGUGUUUUAAAA: 0.394 ratio
GAAGACGGCGACUGUACAUUAUCUCACUUAGAGAAUAUGAAAAUCAUUUUGUUUUGAAGCCCGGUAUUAAACUGGAGUAGCUAUUACGUUCUUGAAAACUGGGGCAGGUGUGCCCUUGAC: 21 ratio

Repeated from above (series 1):
TACGGTTTCCTTATCCTGACGTGCTAG: 1.13 z-score
TTAGGTTTCGGACTGGGTAAGTGCTAG: 5.71 z-score
AGCAGTTGGACCTCTCAGCCAGTGCTA: -0.785 z-score
TCAAGTTTCACTTTCCAACTGTGCTAG: 7.33 z-score
TTAGATATCGAGACTGGATTAGTGCTA: 1.47 z-score
TCAGGACTGCTTCTCCTTTAGTGCTAG: -0.105 z-score
GACGGTCTCGGTATCTGGACGTGCTAG: 0.418 z-score
GACGGTTTCCTACTGCCGACGTGCTAG: 0.358 z-score
GACGATACCAGTTTCGAGACGTGCTAG: 6.12 z-score
GACGCTTTCCTTATCCTGACGTGCTAG: 0.88 z-score
TTAGGACTGGGTATCGGGTAGTGCTAG: 1.07 z-score
TCAAGAAAGAAAACGGGGAGGTGCTAG: 0.61 z-score
TTAGGACTGGGCATCGGTTAGTGCTAG: -0.0863 z-score
TCAAAAATCATTTTCTCACTGTGCTAG: 1.05 z-score
GATGATTCCAGTTTCGAGACGTGCTAG: 5.44 z-score
TTAGGTTTCGCTATCGGTTAGTGCTAG: 9.96 z-score
